{"data": "Measured values collected from several papers", "cell line": "RAW264.7", "note": "Compare with care: the assays were run in different laboratories. ± marks the error that the study gave."}
{"SMILES": "COc1cc(C=O)ccc1OC(=O)CSc1nnc(Cn2cnc3c2c(=O)n(C)c(=O)n3C)o1", "test": "NO release, inhibitor, Griess", "setting": "25 µM, LPS-stimulated", "measurement": "inhibition", "value": "86.4%"}
{"SMILES": "CC(C)C[C@@H](NC(=O)[C@@H](C)NC(=O)[C@@H](CCCCN)NC(=O)[C@H](N)CCCCN)C(=O)N[C@H](C)C(=O)N[C@H](Cc1c[nH]cn1)C(=O)N[C@H](C)C(=O)N[C@H](CC(C)C)C(=O)N[C@H](CCCCN)C(=O)N[C@H](CCCCN)C(=O)N[C@H](Cc1c[nH]c2ccccc12)C(=O)N[C@H](CC(C)C)C(=O)N1CCC[C@@H]1C(=O)N[C@H](C)C(=O)N[C@H](CC(C)C)C(=O)N[C@H](CCCCN)C(=O)N[C@H](CCCCN)C(=O)N[C@H](CC(C)C)C(=O)N[C@H](C)C(=O)N[C@H](Cc1c[nH]cn1)C(=O)N[C@H](C)C(=O)N[C@H](CC(C)C)C(=O)N[C@H](C)C(=O)N[C@H](CCCCN)C(=O)N[C@H](CCCCN)C(N)=O", "test": "cytotoxicity, MTT", "setting": "four hours, 37 °C, serum-free medium", "measurement": "EC50", "value": "2.33 ± 0.3 µM"}
{"SMILES": "C=CCc1ccc(OC(=O)CSc2nnc(Cn3cnc4c3c(=O)n(C)c(=O)n4C)o2)c(OC)c1", "test": "NO release, inhibitor, Griess", "setting": "25 µM, LPS-stimulated", "measurement": "inhibition", "value": "93.2%"}
{"SMILES": "CCCCn1cc(C(=O)O)c(=O)c2cc(F)c(Nc3cccc(Cl)c3)c(N)c21", "test": "nitric oxide production, Griess", "setting": "24 h, added: LPS", "measurement": "IC50", "value": "2.17 ± 0.3 µg/mL"}
{"SMILES": "COC1=C[C@@H]2[C@@H]3Cc4ccc(OC)c(OC(=O)[C@@H]5CCCN5)c4[C@]2(CCN3C)CC1=O", "test": "NO release, inhibitor, Griess", "setting": "LPS-stimulated", "measurement": "IC50", "value": "52.8 µM"}
{"SMILES": "CCCCn1cc(C(=O)O)c(=O)c2cc(F)c3c(nnn3-c3ccccc3Cl)c21", "test": "nitric oxide production, Griess", "setting": "24 h, added: LPS", "measurement": "IC50", "value": "34.9 ± 2.06 µg/mL"}
{"SMILES": "C=CCc1ccc(OC(=O)COC(=O)Cn2cnc3c2c(=O)n(C)c(=O)n3C)c(OC)c1", "test": "ELISA, item: IL-6", "setting": "10 µM, added: LPS", "scale": "relative to: LPS alone", "measurement": "inhibition", "value": "49.3%"}
{"SMILES": "COc1ccc(-n2cc(C(=O)N3C[C@]4(OC(=O)c5ccccc5NC(C)=O)CC[C@H](OC)[C@@]56[C@@H]4C[C@@H]([C@@H]35)[C@@]3(O)C[C@H](OC)[C@H]4C[C@@H]6[C@]3(O)[C@H]4OC)nn2)cc1", "test": "western blot", "setting": "30, 60 or 120 µM, 24 h, added: LPS 1 µg/mL", "measurement": "p-ERK/ERK ratio", "value": "inhibited"}
{"SMILES": "CC(C)[C@@H]1CC[C@@H](C)C[C@H]1OC(=O)Cn1cnc2c1c(=O)n(C)c(=O)n2C", "test": "NO release, inhibitor, Griess", "setting": "25 µM, LPS-stimulated", "measurement": "inhibition", "value": "66.4%"}
{"SMILES": "COC1=C[C@@H]2[C@@H]3Cc4ccc(OC)c(OC(=O)CN(C)C(=O)OC(C)(C)C)c4[C@]2(CCN3C)CC1=O", "test": "NO release, inhibitor, Griess", "setting": "LPS-stimulated", "measurement": "IC50", "value": "59.3 µM"}
{"SMILES": "CC(C)C[C@@H](NC(=O)[C@@H](C)NC(=O)[C@@H](CC(C)C)NC(=O)[C@@H](CCCCN)NC(=O)[C@@H](CCCCN)NC(=O)[C@@H](CC(C)C)NC(=O)[C@@H](C)NC(=O)[C@H]1CCCN1C(=O)[C@@H](CC(C)C)NC(=O)[C@@H](Cc1c[nH]c2ccccc12)NC(=O)[C@@H](CCCCN)NC(=O)[C@@H](CCCCN)NC(=O)[C@@H](CC(C)C)NC(=O)[C@@H](C)NC(=O)[C@@H](CC(C)C)NC(=O)[C@@H](CC(C)C)NC(=O)[C@@H](C)NC(=O)[C@@H](CC(C)C)NC(=O)[C@@H](CCCCN)NC(=O)[C@H](N)CCCCN)C(=O)N[C@H](CC(C)C)C(=O)N[C@H](C)C(=O)N[C@H](CC(C)C)C(=O)N[C@H](CCCCN)C(=O)N[C@H](CCCCN)C(N)=O", "test": "cytotoxicity, MTT", "setting": "four hours, 37 °C, serum-free medium", "measurement": "EC50", "value": "3.8 ± 0.34 µM"}
{"SMILES": "CC(C)OC(=O)[C@H](C)NP(=S)(Oc1ccccc1)c1ccccc1 (stereo partly shown)", "test": "ELISA", "setting": "20, 100, 500 µM, 24 h, added: LPS 1 µg/mL", "measurement": "IL-1β and IL-6 secretion", "value": "inhibited"}
{"SMILES": "COC1=C[C@@H]2[C@@H]3Cc4ccc(OC)c(OC(=O)c5cnccn5)c4[C@]2(CCN3C)CC1=O", "test": "NO release, inhibitor, Griess", "setting": "LPS-stimulated", "measurement": "IC50", "value": "30.3 µM"}
{"SMILES": "COc1cc(C=O)ccc1OC(=O)COC(=O)Cn1cnc2c1c(=O)n(C)c(=O)n2C", "test": "NO release, inhibitor, Griess", "setting": "25 µM, LPS-stimulated", "measurement": "inhibition", "value": "68.6%"}
{"SMILES": "CCCCn1cc(C(=O)O)c(=O)c2cc(F)c(Nc3cccc(Cl)c3)c([N+](=O)[O-])c21", "test": "NO release, inhibitor, Griess", "setting": "LPS-stimulated", "measurement": "IC50", "value": "69.3 µM"}
{"SMILES": "COC1=C[C@@H]2[C@@H]3Cc4ccc(OC)c(OC(=O)CN)c4[C@]2(CCN3C)CC1=O", "test": "NO release, inhibitor, Griess", "setting": "LPS-stimulated", "measurement": "IC50", "value": "53.4 µM"}
{"SMILES": "Cc1ccc(C(C)C)c(OC(=O)CSc2nnc(Cn3cnc4c3c(=O)n(C)c(=O)n4C)o2)c1", "test": "NO release, inhibitor, Griess", "setting": "25 µM, LPS-stimulated", "measurement": "inhibition", "value": "92.8%"}
{"SMILES": "COC1=C[C@@H]2[C@@H]3Cc4ccc(OC)c(OC(=O)[C@@H](N)Cc5ccccc5)c4[C@]2(CCN3C)CC1=O", "test": "NO release, inhibitor, Griess", "setting": "LPS-stimulated", "measurement": "IC50", "value": "72.3 µM"}
{"SMILES": "CC(C)C[C@@H](NC(=O)[C@@H](C)NC(=O)[C@@H](CCCCN)NC(=O)[C@H](N)CCCCN)C(=O)N[C@H](C)C(=O)N[C@H](CCCCN)C(=O)N[C@H](C)C(=O)N[C@H](CC(C)C)C(=O)N[C@H](CCCCN)C(=O)N[C@H](Cc1c[nH]cn1)C(=O)N[C@H](Cc1c[nH]c2ccccc12)C(=O)N[C@H](CC(C)C)C(=O)N1CCC[C@@H]1C(=O)N[C@H](C)C(=O)N[C@H](CC(C)C)C(=O)N[C@H](Cc1c[nH]cn1)C(=O)N[C@H](CCCCN)C(=O)N[C@H](CC(C)C)C(=O)N[C@H](C)C(=O)N[C@H](CCCCN)C(=O)N[C@H](C)C(=O)N[C@H](CC(C)C)C(=O)N[C@H](C)C(=O)N[C@H](CCCCN)C(=O)N[C@H](CCCCN)C(N)=O", "test": "cytotoxicity, MTT", "setting": "four hours, 37 °C, serum-free medium", "measurement": "EC50", "value": "7.08 ± 1.42 µM"}
{"note": "Excerpt of the above:"}
{"SMILES": "COc1cc(C=O)ccc1OC(=O)CSc1nnc(Cn2cnc3c2c(=O)n(C)c(=O)n3C)o1", "test": "NO release, inhibitor, Griess", "setting": "25 µM, LPS-stimulated", "measurement": "inhibition", "value": "86.4%"}
{"SMILES": "CC(C)C[C@@H](NC(=O)[C@@H](C)NC(=O)[C@@H](CCCCN)NC(=O)[C@H](N)CCCCN)C(=O)N[C@H](C)C(=O)N[C@H](Cc1c[nH]cn1)C(=O)N[C@H](C)C(=O)N[C@H](CC(C)C)C(=O)N[C@H](CCCCN)C(=O)N[C@H](CCCCN)C(=O)N[C@H](Cc1c[nH]c2ccccc12)C(=O)N[C@H](CC(C)C)C(=O)N1CCC[C@@H]1C(=O)N[C@H](C)C(=O)N[C@H](CC(C)C)C(=O)N[C@H](CCCCN)C(=O)N[C@H](CCCCN)C(=O)N[C@H](CC(C)C)C(=O)N[C@H](C)C(=O)N[C@H](Cc1c[nH]cn1)C(=O)N[C@H](C)C(=O)N[C@H](CC(C)C)C(=O)N[C@H](C)C(=O)N[C@H](CCCCN)C(=O)N[C@H](CCCCN)C(N)=O", "test": "cytotoxicity, MTT", "setting": "four hours, 37 °C, serum-free medium", "measurement": "EC50", "value": "2.33 ± 0.3 µM"}
